Measured values collected from several papers.
Every numbered part comes from another study and shows a few of its results, in no order.

Block 1
Target: Histone acetyltransferase KAT6A, both winged helices, GST fusion (KAT6A, Homo sapiens, UniProt Q92794, residues 1-181)
Method: protein binding microarray
Molecule type: double-stranded DNA, one strand shown
Medium: in vitro
Concentration: not given
Setting: 8-mer, flanks averaged, mean of 2 arrays, mostly near background
Baseline: not given
Reading: higher = stronger binding
Target sequence (chain): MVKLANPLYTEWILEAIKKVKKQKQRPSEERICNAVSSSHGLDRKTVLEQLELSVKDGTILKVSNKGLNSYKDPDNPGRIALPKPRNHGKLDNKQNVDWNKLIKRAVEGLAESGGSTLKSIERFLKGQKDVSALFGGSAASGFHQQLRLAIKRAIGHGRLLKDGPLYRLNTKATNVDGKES
Oligonucleotide	E-score
ATAAATCC	-0.0363
AAGGACCG	0.00565
AGATCAGA	-0.0391
CTTAAAAG	-0.188
CGCCCTGA	0.094
GGAGCAAA	-0.158
GCCAAGTA	-0.251
AACGAGGT	-0.00374
CTTTAGCA	-0.207
CTAGCCCC	-0.168
AGCCTGTC	-0.0186
ACTATCGC	0.0056
AGATACCT	-0.13
CTGCGGCA	0.238
ATTGTACA	0.00148
ACCCTGCG	-0.0773
GATTTGGA	-0.109
AAAAGAGC	-0.0428
GCGAGCAA	0.00173
AGGAGCGG	0.222
AGAAAGAA	-0.0969
AGGCCTAT	-0.177
CCGGAATA	0.0188
CGTGATAC	0.045
GTAGTGAC	0.106

Block 2
Target: Myc proto-oncogene protein, bHLH-zipper, MAX partner unstated (MYC, Homo sapiens, UniProt P01106, residues 368-449)
Chain of UniProt P01106 (368-449, looked up): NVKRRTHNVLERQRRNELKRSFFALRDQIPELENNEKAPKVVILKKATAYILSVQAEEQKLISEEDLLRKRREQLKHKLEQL
Method: protein-binding microarray
Molecule type: double-stranded DNA, one strand shown
Medium: in vitro
Concentration: not given
Setting: k-mer, scored over probes, only values ≥0.25
Reading: higher = stronger binding
Oligonucleotide	E-score
CCCACTCC	0.255
CACGCGGA	0.463
CCACCTGG	0.365
CACGGGGC	0.343
GCACACAC	0.284
CGTGCGGA	0.293
GGCACGCA	0.285
CATCATGC	0.272
ACGAGCGT	0.251
CATGCGAA	0.267
CCTCATGC	0.432
ATGCACTC	0.279
CATGGTAC	0.393
CTGAGCAC	0.263
CATGGCAA	0.402
ACACGCAC	0.382
AAGCATGG	0.415
ACGTGTTA	0.41
CGAACACG	0.342
ACGCCCAC	0.352
CGCGCGGA	0.316
AGCGTGGC	0.423
ATGCGGCC	0.286

Block 3
Target: Ras GTPase-activating protein-binding protein 1, full length (G3BP1, Homo sapiens, UniProt Q13283)
Chain of UniProt Q13283 (whole entry, looked up): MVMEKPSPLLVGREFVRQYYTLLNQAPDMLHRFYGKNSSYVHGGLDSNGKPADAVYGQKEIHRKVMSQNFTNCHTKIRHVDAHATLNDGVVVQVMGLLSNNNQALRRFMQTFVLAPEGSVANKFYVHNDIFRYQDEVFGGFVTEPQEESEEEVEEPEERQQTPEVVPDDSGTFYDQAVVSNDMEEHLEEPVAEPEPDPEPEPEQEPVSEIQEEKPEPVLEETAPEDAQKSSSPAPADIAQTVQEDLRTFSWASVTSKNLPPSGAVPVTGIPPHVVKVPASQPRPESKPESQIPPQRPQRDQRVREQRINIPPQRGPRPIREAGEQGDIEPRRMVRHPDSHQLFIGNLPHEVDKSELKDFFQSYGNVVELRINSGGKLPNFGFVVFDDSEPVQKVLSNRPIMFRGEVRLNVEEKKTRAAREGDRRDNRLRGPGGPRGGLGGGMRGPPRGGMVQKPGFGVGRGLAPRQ
Method: RNA Bind-n-Seq
Molecule type: RNA
Medium: in vitro
Concentration: 200 nM
Setting: whole 134-nt RNA, ends assumed
With: 150 mM KCl
Baseline: input library
Reading: higher = stronger binding
Constant ends, left off below: GGGAGUUCUACAGUCCGACGAUC … UGGAAUUCUCGGGUGUCAAGG
Oligonucleotide	log2 enrichment
UGGGAGGUGGAUUUUGUUUAUUUUUUUAGCUCAUUUCCAGGGGUGGGAAUUUUUUUUUAAUAUGUGUCAUGAAUAAAAUUGUUUUUGAAA	0.0885
UUUCUCCAUUGCAGGAAGUUGGCAGUAUCAUCGGAAAGGUAAGACAAUUUCACUUCAACUUCAAUUACCAUUUAGUAAUUCUGGAUUGAA	-1.22
ACCAUGCAGGUGGGCAUCUUUGGGAAGUGGGGCAAGGGGGGGAUAGGGAGGGGGGUAACACUUUGGGAACAGGUGGUCCCAGGUCGUUAC	1.14
AGUCCUGUGCUACACAUCGUAUGUACCGAAUCGGGAAAAAAAGGGUGGGUUUUUGGGAAAGUAUUAUGUUACGCCGUUCGGAUCUGCACU	-0.243
AGUCCUGUGCUACACAUCGUAUGUACCGAAUCGGGGAAAAGGGAAAAGGGGAAAAGGAAAGUAUUAUGUUACGCCGUUCGGAUCUGCACU	-0.264
UCCUGUGCUACACAUCGUAUGUACCGAAUCAAACCCCCAAAUUUUUUUAAAUUUUUAAAAAAGUAUUAUGUUACGCCGUUCGGAUCUGCA	0.311
UAACUUUAGAGGAGGAUCUGAUGGAUAUGGCAGUGGACGUGGAUUUGGGGAUGGCUAUAACGGGUAUGGAGGAGGACCUGGAGGUGGCAA	0.375
CCUCAAGUCCUGUGCUACACAUCGUAUGUACCGAAUCGGGUUGGUUGGUUGGAAAGUAUUAUGUUACGCCGUUCGGAUCUGCACUUCCAG	-0.0535
UGGGAGGUGGAUUUUGUUCAUUUUUUUAGCUCAUUUCCAGGGGUGGGAAUUUUUUUUUAAUAUGUGUCAUGAAUAAAGUUGUUUUUGAAA	0.108
UGCUUCAGACCAAGCGGAGCUCCCGGAGGCAAAGCCUGGAGCUGCAGAAGUGUGAAGAGAUCCUCCACAAGAUCGUGAAGUACCGCUUCA	-1.98

Block 4
Target: Interferon regulatory factor 7, full length, phosphomimetic (IRF7, Homo sapiens, UniProt Q92985, residues 1-503, S471D/S472D/S475D/S476D/S477D/S483D/S484D/S487D)
Chain of UniProt Q92985 (whole entry, unmodified, looked up): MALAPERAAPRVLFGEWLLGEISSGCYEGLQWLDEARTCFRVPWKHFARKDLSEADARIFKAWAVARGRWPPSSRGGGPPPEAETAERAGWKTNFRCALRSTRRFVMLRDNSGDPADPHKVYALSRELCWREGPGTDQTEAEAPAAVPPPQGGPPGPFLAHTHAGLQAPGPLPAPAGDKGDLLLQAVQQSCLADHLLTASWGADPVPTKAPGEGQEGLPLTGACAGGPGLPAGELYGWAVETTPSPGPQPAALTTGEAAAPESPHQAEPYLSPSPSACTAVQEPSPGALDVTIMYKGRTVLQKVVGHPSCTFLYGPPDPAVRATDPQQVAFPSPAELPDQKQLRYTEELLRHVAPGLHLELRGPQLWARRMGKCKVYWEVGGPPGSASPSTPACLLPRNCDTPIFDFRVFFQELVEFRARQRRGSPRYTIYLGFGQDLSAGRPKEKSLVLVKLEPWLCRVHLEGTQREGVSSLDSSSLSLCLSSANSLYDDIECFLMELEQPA
Method: protein-binding microarray
Molecule type: double-stranded DNA, one strand shown
Medium: in vitro
Concentration: 2200 nM top
Setting: 60-bp whole probe
With: salmon DNA 0.4 mg/ml
Baseline: random background probes
Reading: higher = stronger binding
Constant ends, left off below: GCCTAGCAC … GTCTTGATTCGCTTGACGCTGCTG
Oligonucleotide	fitted relative affinity [z-score]
TTGGATTTCAGTTTCGATTAGTGCTAG	8.24
GACGGTTTCCTACTGCTGATGTGCTAG	1.77
AACGGTTTCCTTATCCTGACGTGCTAG	2.94
GACGGACTGGGGTTTCGTGACGTGCTA	-0.166
TCACATATGCTTTTTAGACTGTGCTAG	1.25
GACGGACTGCTTATGCTGACGTGCTAG	-0.0841
TCACCTTTTAATTTTTAACTGTGCTAG	1.18
GATGGTTTCCTACTGCTGACGTGCTAG	1.68
TTAGGTATCGGTTTTCGGTTAGTGCTA	5.24
GACGGTTCCCTTTTCCAGACGTGCTAG	2.69
GACGATATCAGTCTCGTGACGTGCTAG	0.342
GACGGTATCGGGTTTCGGGAGGTGCTA	1.03
GACGGTTTCGGATTGGGGACGTGCTAG	9.73
GACGGTCACCTTCTCCTGACGTGCTAG	0.63
TCATTTTTCATTATTGTACTGTGCTAG	2.82
GACGGACTGCTCTTCCTGACGTGCTAG	0.351
TTAGGTATCGACTTTCGGATAGTGCTA	2.66
GCCGATCTCAGTTTCGAGACGTGCTAG	3.83
GACGTACTGGGGTATCGGGACGTGCTA	-0.248
TTAAGTCTCCTTCTCCTTTAGTGCTAG	1.15
TTAGGTTACCTACTGCTTTAGTGCTAG	0.443
GACGGTCTCGACTTTCGGGACGTGCTA	2.74
GACGGTCCCCTTTTCCTGACGTGCTAG	1.16
TTAGGTATCGACTTTCTGTTAGTGCTA	2.28
TTAGGACTGGGTATCAGTTAGTGCTAG	-0.641

Excerpt of the above (block 4):
Oligonucleotide	fitted relative affinity [z-score]
GCCGATCTCAGTTTCGAGACGTGCTAG	3.83
GACGTACTGGGGTATCGGGACGTGCTA	-0.248
TTAAGTCTCCTTCTCCTTTAGTGCTAG	1.15
TTAGGTTACCTACTGCTTTAGTGCTAG	0.443
GACGGTCTCGACTTTCGGGACGTGCTA	2.74
